Results of several laboratories.
Numbered parts are unrelated; each lists some results of a single study. Changes are numbered by the printed parent chain.

Sample 1
Target: RNA binding protein fox-1 homolog 2, RRM domain, GST-SBP tag (RBFOX2, Homo sapiens, UniProt O43251-10, residues 100-194)
Technique: RNA Bind-n-Seq
Molecule type: RNA
Matrix: in vitro
Concentration: 365 nM
Setting: natural RNA segment, single round, ends assumed
Baseline: no-protein control
Direction: higher = stronger binding
Construct (chain): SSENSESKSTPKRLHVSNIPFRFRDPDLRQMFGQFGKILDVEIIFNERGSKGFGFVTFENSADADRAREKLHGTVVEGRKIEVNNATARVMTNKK
Sequence | RBNS enrichment (R)
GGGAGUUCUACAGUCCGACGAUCUAACUGUAUAAAAUGUUCAUUUUACACAAUAUUUAAUUAAAGUAUUUCUUGUCUGUGAAUUUCACUUUUGGUAGUUUUAUCUGUUUUGACUAUUAAAAUGACUGACAAAUUGGAAUUCUCGGGUGCCAA | 0.445
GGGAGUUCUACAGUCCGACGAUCUAGAAACUAUUUAGUUUUGGUAGAUUUUUUUUCUGACAAUGUGACCAGACUGAAUUUCCUCAUAAAGAAAAAAUGGCGUGCCUUGUGUCUGUGUUUCUCUUUUCUCUGAAUGGAAUUCUCGGGUGCCAA | 1.47
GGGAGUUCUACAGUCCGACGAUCAAUGAUCCCCUUGACUGCAUCAUGCAUGUGCGGAAAAAAUAAAUCCAGAAGUAGCAGAACCCUAGCUCUGUUUGUGUGACAUAGUAGGGUAUUAGACUAUGAGGUUGUGGUGGAAUUCUCGGGUGCCAA | 5.98
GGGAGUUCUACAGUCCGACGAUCUUGGUGCCUCUUUAUUUUAAAAAAUUUGAAGAAAAGAGCCACCUCAUAUUCAUAGGGUGUGUAUUUUUUGAGUGUGAGCAUUUAAUUGAAAAUAAGAAAGCUAUGAAGUAUGGAAUUCUCGGGUGCCAA | 0.752
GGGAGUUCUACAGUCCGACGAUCGCAUCAGGACCUCUCCACCCAGGAUCCUCCAUGCCACAUGGUCACUGCUCUCCUCAGGGACUGGGACAAGGUGCUGCCGCCUGCCCACAGUUUUCCCAAGGAACACGUACUGGAAUUCUCGGGUGCCAA | 0.326
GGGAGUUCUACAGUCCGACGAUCUCAUGUAUCAUCUAGCCAUGCACGAGCCUGGCAGGCAGGUGGGCGGUCUGCCUCCAGGGAUCCUGGGACCCUGAUGGCGAUCGUCCUGUCAUGCUGGGCCCUUCAUUUGAUGGAAUUCUCGGGUGCCAA | 0.458
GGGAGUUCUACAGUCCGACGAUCCCAAGUUAAACCCCUGCUUUCUGUCCUUUGCACCUUUUGCGUGAACAGAAUAUGCAUUAUUAAAGCAAAAAUAAAUAAAAGUAAAAUGCAAAUGAAAACAAGGGAGGGAAUGGAAUUCUCGGGUGCCAA | 0.421
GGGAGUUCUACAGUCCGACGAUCAUGGUACCAGAGUGCUCAGAAACUCAAGAUAGGAUAUGCCUCACCCUCAGCUACUCCUUGUUUUAAAGUUCAGCUCUUUGAGUAACUUCUUCAAUUUCUUUCAGGACACUUGGAAUUCUCGGGUGCCAA | 0.336
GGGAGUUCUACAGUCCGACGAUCUAAACCACAGUCUGGAGUGAUAGCUACUGUAGAAAGGAAAUAGACUUUGUAUGAACUCUUUAAGUUGAAAAGUAAAAAAUAUAUGUGGUUUGGAUGUGUGCUUUAAUUCAUGGAAUUCUCGGGUGCCAA | 2.27
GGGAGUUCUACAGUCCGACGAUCUAAUCUCCCCCUAGCUUCAAGCUGUACAUAGGGCCUCCCAGUGCAAAUCCUCCUGCCCAUACCGUGCACCCUUAGAAGCCUGCGUGUGCAUAGAGCGCCCCCUACUUCCCUGGAAUUCUCGGGUGCCAA | 0.612
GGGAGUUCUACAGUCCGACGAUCCCUUCCUGGUGGUAUCAGCUUCCAGCUGUUUCAACCCUUCCCAGCCCGUUGCUGGCGAUGGGCCCAUGCCCCCUCUCCAGGCUCUCUAGAGGCAGGCAGGUCCUUGGAAUUGGAAUUCUCGGGUGCCAA | 0.189
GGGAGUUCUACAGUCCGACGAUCUUUUGUUCUGUUGAUGAAGCAAAUUUGACAGAAUAUUAUUUCUCCAUAUCACACAUAUCUACACUAUUAUCUGAUAACACACUGGUAGUUUUUAAGACUAAGGCAGUUUAUGGAAUUCUCGGGUGCCAA | 0.462

Sample 2
Target: Histone acetyltransferase KAT6A, both winged helices, GST fusion (KAT6A, Homo sapiens, UniProt Q92794, residues 1-181)
Technique: protein binding microarray
Molecule type: double-stranded DNA, one strand shown
Matrix: in vitro
Concentration: not given
Setting: 8-mer, flanks averaged, mean of 2 arrays, mostly near background
Baseline: not given
Direction: higher = stronger binding
Residues (chain): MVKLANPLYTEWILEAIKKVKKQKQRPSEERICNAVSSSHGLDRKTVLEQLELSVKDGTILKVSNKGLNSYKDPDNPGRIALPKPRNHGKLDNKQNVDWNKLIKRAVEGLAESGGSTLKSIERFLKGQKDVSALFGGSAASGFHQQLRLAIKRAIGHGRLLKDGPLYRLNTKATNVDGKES
Sequence | E-score
TAGGTTGA | -0.0669
CAGAAACG | -0.00311
GTTCTTTA | 0.00097
AAATAGGC | 0.0571
CAGGATCA | -0.159
CAGTCTAC | -0.0244
CCTGAAAG | -0.165
CCGCGTAC | 0.265
CATCTCTA | -0.12
GGGTCCTA | -0.194
ATTCAACA | -0.0358
ATTGTGGC | -0.0133
ATGCGTGC | 0.103
GTCTCGAA | -0.104
GCCGAGCC | 0.137
AATCCAAT | -0.0331
CTATTCCA | -0.13
ACTGAACG | 0.0894
CGCAACCC | 0.0594
ATCAACCG | 0.0869
GTCTAATA | 0.0616
CGAGACTA | -0.105

Sample 3
Target: CCNE1, cyclin fold, Cln2 fusion (human)
Technique: yeast growth competition, sequencing
Matrix: yeast
Setting: weak parent motif
Baseline: not given
Direction: higher = stronger binding
Starting sequence: WEE1 docking peptide (human); HKTFRKLRLFDTP
Substitution | normalised enrichment score
HKTFQKLRLFDTP [R5Q] | 0.659
HKTFHKLRLFDTP [R5H] | 1.46
HKTFRKLSLFDTP [R8S] | 0.773
HKTFRKLRLFDPP [T12P] | -0.189
HKTFRKQRLFDTP [L7Q] | 0.727
HKTFRKFRLFDTP [L7F] | 0.827
HKTFRKLRLEDTP [F10E] | 0.357
HKTARKLRLFDTP [F4A] | 0.979
HKEFRKLRLFDTP [T3E] | -0.0314
HKQFRKLRLFDTP [T3Q] | 0.06
HKTFRKCRLFDTP [L7C] | 1.35
HKTFRDLRLFDTP [K6D] | 0.836
HKTFRKLRLFDTQ [P13Q] | -0.455
HKTFRKLRLGDTP [F10G] | -0.337
HKTFRKLRLWDTP [F10W] | 0.727
HKTHRKLRLFDTP [F4H] | 1.04
HPTFRKLRLFDTP [K2P] | 0.563
HKTFIKLRLFDTP [R5I] | 1.24
HTTFRKLRLFDTP [K2T] | 0.902
HKTFRKNRLFDTP [L7N] | 0.429
HKTFRKLRLVDTP [F10V] | -0.313
HKTFRLLRLFDTP [K6L] | 0.138
HKTFRKLRLFCTP [D11C] | 1.5

Sample 4
Molecule: SNRNP200 (Homo sapiens, UniProt O75643)
Technique: cross-linking MS
Matrix: cell fractions
Added: DSSO
partner | cross-linked residues
PRPF6 (Homo sapiens, UniProt O94906) | K695 to K395
ELL3 (Homo sapiens, UniProt Q9HB65) | K971 to Y356
ZMAT2 (Homo sapiens, UniProt Q96NC0) | T180 to K64

Other studies, line by line
Molecule | target | assay | system | conditions | scale | quantity | result
PhoQ, residues 284 288 289 292 302 303 TVTVVA | PhoP, residues 12 14 15 18 19 LHATL (Escherichia coli, UniProt P23836) | Sort-seq, refers to: YFP reporter | E. coli | PhoQ-PhoP variant library, added: 10 µM Mg2+ | baseline: high Mg2+ state, higher = stronger signaling | fold induction | 1.55

Excerpt of the above (sample 2):
Sequence | E-score
GTCTAATA | 0.0616
CCTGAAAG | -0.165
CTATTCCA | -0.13
ATTGTGGC | -0.0133
GTTCTTTA | 0.00097
ATGCGTGC | 0.103
CAGAAACG | -0.00311
CATCTCTA | -0.12
GTCTCGAA | -0.104
CAGGATCA | -0.159
